Results pooled from the literature.
Protocols differ between the studies behind these lines. Values joined by “and” are separate records of one study, mostly repeats; a detail may differ. ± gives the spread as reported.
Sequence of UniProt P0A725 (whole entry, looked up): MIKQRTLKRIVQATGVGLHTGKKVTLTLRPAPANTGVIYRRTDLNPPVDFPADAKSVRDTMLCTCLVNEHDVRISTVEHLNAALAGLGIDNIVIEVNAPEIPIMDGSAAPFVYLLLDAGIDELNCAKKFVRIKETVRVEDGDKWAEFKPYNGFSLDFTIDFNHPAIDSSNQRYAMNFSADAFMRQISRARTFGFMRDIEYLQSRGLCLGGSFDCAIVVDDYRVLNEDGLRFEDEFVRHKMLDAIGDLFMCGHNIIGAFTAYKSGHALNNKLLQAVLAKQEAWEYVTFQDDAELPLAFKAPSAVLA
Sequence of UniProt P47746 (whole entry, looked up): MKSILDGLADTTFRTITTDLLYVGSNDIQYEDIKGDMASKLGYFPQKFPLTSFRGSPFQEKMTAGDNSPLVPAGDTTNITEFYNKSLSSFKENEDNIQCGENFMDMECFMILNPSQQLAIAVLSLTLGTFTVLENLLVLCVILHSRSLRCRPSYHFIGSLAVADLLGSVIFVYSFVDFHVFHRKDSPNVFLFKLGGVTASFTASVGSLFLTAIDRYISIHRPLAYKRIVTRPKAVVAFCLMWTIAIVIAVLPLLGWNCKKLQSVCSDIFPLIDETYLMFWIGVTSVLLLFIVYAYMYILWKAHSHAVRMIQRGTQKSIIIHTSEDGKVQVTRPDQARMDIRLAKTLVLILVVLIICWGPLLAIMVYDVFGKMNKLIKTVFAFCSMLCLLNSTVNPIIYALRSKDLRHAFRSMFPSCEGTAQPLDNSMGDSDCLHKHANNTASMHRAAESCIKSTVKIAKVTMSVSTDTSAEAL
Sequence of UniProt P11229 (whole entry, looked up): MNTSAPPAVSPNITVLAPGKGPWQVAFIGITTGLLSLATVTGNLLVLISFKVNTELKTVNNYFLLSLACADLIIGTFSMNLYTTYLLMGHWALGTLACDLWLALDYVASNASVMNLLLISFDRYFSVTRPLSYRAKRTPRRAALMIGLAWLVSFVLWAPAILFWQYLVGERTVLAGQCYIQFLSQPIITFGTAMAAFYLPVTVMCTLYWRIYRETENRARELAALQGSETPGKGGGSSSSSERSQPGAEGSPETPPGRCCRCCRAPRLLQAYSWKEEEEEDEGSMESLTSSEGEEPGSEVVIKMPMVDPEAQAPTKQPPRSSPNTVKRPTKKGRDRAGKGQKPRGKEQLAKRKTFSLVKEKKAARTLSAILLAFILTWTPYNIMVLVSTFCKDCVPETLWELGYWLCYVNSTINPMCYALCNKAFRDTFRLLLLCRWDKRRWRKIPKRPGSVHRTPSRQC
Sequence of UniProt Q09472 (whole entry, looked up): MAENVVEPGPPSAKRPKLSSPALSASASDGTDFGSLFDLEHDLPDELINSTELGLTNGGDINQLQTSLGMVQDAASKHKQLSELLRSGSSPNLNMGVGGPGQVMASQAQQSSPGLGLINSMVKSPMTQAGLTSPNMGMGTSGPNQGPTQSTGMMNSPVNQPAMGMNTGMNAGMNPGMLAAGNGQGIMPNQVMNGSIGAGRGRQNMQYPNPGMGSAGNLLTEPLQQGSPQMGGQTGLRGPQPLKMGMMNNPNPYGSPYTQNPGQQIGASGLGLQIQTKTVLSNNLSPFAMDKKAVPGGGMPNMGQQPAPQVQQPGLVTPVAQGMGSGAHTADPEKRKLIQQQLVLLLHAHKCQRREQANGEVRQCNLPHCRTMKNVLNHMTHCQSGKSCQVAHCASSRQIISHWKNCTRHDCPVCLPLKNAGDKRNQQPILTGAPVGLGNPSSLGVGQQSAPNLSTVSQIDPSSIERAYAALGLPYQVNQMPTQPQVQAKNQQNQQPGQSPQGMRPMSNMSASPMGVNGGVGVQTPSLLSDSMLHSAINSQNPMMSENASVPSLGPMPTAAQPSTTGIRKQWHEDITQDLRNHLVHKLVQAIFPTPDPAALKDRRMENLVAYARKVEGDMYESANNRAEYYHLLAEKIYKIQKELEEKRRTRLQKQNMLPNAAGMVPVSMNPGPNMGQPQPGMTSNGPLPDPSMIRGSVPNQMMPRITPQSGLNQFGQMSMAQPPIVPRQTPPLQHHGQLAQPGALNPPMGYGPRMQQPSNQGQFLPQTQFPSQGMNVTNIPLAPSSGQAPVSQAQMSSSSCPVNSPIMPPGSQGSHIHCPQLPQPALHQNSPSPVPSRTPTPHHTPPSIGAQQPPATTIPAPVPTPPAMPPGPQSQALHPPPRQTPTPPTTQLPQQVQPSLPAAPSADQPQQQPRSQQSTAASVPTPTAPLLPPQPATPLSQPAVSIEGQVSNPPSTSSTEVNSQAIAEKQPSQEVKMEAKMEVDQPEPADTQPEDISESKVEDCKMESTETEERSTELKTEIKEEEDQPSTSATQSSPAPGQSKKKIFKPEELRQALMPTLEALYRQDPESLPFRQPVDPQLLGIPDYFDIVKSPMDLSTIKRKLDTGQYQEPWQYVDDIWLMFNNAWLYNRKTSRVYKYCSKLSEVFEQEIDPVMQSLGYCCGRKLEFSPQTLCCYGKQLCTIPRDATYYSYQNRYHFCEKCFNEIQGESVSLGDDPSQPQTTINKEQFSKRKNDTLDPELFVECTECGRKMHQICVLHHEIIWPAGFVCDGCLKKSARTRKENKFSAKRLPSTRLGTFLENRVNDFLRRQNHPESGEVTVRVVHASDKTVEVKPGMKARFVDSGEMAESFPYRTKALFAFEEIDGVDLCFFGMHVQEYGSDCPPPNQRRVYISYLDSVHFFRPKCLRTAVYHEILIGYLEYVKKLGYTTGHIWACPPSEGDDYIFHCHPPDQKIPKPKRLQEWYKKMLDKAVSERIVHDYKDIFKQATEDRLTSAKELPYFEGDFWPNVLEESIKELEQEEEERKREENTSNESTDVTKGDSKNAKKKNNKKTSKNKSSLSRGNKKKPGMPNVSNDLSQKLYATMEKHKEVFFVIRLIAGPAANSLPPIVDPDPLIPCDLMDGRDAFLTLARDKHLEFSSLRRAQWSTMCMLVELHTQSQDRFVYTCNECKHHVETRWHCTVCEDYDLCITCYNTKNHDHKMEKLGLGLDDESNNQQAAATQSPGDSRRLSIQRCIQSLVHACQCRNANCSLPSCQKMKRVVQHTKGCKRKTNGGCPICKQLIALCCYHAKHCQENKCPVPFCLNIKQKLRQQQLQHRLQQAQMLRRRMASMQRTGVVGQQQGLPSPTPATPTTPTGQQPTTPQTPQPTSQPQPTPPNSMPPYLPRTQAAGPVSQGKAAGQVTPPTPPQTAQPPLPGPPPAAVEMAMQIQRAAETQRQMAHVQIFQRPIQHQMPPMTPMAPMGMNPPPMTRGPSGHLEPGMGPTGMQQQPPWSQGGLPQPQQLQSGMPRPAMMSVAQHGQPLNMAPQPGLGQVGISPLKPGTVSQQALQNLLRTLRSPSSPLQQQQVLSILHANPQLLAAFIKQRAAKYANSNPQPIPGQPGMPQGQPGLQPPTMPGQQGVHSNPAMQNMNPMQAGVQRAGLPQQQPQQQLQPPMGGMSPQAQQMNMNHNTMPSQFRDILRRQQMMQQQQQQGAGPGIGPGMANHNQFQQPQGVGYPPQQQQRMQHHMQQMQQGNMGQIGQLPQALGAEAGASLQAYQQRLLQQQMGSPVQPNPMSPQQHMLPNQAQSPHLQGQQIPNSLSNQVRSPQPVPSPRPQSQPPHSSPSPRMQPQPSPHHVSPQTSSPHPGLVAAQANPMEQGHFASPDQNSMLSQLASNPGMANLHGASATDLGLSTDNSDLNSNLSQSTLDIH
Sequence of UniProt Q6GIL5 (whole entry, looked up): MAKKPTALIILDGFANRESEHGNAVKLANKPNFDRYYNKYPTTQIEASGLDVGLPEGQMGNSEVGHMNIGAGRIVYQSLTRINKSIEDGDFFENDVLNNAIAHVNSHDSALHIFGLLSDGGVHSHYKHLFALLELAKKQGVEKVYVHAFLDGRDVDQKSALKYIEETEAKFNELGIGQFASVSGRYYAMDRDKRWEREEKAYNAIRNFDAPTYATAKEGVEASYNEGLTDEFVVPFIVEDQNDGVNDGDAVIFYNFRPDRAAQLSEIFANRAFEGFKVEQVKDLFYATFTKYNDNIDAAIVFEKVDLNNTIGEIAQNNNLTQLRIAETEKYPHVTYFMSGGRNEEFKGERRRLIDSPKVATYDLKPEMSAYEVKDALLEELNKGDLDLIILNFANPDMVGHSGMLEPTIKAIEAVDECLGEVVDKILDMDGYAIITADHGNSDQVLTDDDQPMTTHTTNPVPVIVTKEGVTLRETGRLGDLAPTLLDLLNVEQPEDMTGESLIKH
Sequence of UniProt P21729 (whole entry, looked up): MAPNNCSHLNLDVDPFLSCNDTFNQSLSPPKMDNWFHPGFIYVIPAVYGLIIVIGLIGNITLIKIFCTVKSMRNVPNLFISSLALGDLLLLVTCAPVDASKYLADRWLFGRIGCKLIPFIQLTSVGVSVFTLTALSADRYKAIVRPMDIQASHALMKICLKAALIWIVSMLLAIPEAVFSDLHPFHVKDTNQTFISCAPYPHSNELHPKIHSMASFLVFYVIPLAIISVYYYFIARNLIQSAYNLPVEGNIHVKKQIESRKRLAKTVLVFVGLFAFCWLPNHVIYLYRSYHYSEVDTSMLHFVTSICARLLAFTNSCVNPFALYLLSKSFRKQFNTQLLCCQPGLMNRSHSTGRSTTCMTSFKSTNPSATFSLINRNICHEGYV
Sequence of UniProt P30542 (whole entry, looked up): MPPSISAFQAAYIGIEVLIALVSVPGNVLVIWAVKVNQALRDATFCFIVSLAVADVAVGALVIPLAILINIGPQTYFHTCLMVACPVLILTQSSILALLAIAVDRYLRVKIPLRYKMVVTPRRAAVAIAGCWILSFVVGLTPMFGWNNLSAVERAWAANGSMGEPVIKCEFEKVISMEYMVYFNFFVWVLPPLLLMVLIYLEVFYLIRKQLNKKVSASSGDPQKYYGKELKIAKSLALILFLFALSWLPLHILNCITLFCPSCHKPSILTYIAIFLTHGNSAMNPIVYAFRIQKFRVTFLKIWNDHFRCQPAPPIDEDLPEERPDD

SMILES	target or system	assay	test system	conditions	scale	measurement	value
CCS(=O)(=O)Nc1cc(-c2cn(C)c3c(=O)[nH]ccc23)cc2c1ccn2C(C)(c1ccccn1)c1ccccn1	EP300 (Homo sapiens, UniProt Q09472)	cell-free assay				IC50	28 nM
[Cl-].[Cl-].[Ni+2].c1ccc(CN2CCNCCN(Cc3ccccc3)CCNCC2)cc1	Leishmania donovani	parasite growth, resazurin		72 h, amastigote		IC50	> 20000 nM
C=CC(=O)N1CCC[C@@H](n2nc(-c3ccc(Cl)cc3)c3c(N)ncnc32)C1	Src family kinases				baseline: wild type over S245C	Ki ratio	≥ 50 fold
CC(C)C[C@H](NC(=O)[C@H](Cc1ccccc1)NC(=O)[C@H](CC(C)C)NC(=O)[C@H](CO)NC(=O)[C@H](CC(C)C)NC(=O)[C@H](CCC(N)=O)NC(=O)[C@H](CC(=O)O)NC(=O)[C@H](CC(=O)O)NC(=O)CCCCCNC(=O)c1ccc2c(c1)C(=O)OC21c2ccc(O)cc2Oc2cc(O)ccc21)C(=O)N[C@@H](CC(=O)O)C(=O)N[C@@H](CCC(=O)O)C(N)=O	Beta sliding clamp (dnaN, Bacillus subtilis, UniProt P05649)			pH 7.5		Kd	7200 ± 2200 nM
CCC(=O)N(C)c1ccc(Cl)c(Cl)c1	Salmonella typhimurium	Ames test	TA100	5.00 mg/plate, with rat liver S9		revertant colonies	0 revertants/plate
COC(=O)c1ccc(Cn2cc(C=C3C(=NO)C4CCN3CC4)c3ccccc32)cc1	Cnr1 (Mus musculus, UniProt P47746)	ligand displacement, radioligand		cell membranes		Ki	336 nM
C[C@@](O)(C(F)F)[C@H](NC(=O)c1ccc(C#CC#CC2CC2)cc1)C(=O)NO	UDP-3-O-acyl-N-acetylglucosamine deacetylase (Escherichia coli K-12, UniProt P0A725)	enzyme activity, slow-binding competitive inhibitor, time-dependent inhibition				Ki	~0.0089 nM and 0.0089 nM
Cc1sc2c(c1C)C(c1ccc(Cl)cc1)=N[C@@H](CC(=O)NCCCNC(=O)c1cc([N+](=O)[O-])ccc1F)c1nnc(C)n1-2	BRD4 (Homo sapiens, UniProt O60885)	degrader, cell-based				DC50	459 nM
CCN1CCN(C2=Nc3cc(Cl)ccc3Nc3ccccc32)CC1	CHRM3 (Homo sapiens, UniProt P20309)	calcium signal, agonist				EC50	> 30000 nM
CN[C@](C)(C[18F])C(=O)O	DU-145 tumour model		host not given, heart	15 min, tumour-bearing		tracer uptake	2.6 %ID/g
O=P(O)(O)Oc1ccc(Oc2ccc(S(=O)(=O)CC3CS3)cc2)cc1 (racemic)	MMP14 (Homo sapiens, UniProt P50281)	enzyme activity, inhibitor				Ki	32600 nM
C=C(C)C1C2OC(=O)C1C1(O)CC3OC34C(=O)OC2C14C (stereo not drawn)	Rdl (Drosophila melanogaster, UniProt P25123)	GABA-induced current, antagonist, two-electrode voltage clamp	Xenopus oocytes	wild-type receptor, together with: GABA at EC50		Hill coefficient	0.73 ± 0.13
CCCC[C@H]1C(=O)N2CCC[C@H]2C(=O)N[C@H](C(N)=O)CSCC(=O)N[C@@H](Cc2ccc(O)cc2)C(=O)N(C)[C@@H](Cc2ccc(OC)cc2)C(=O)N[C@@H](CCCNC(=N)N)C(=O)N(C)[C@@H](Cc2ccccc2)C(=O)N[C@@H](CC(=O)O)C(=O)N(C)[C@@H](CO)C(=O)N(C)[C@@H](Cc2ccc(O)cc2)C(=O)N[C@@H](CCC(N)=O)C(=O)N[C@@H](CO)C(=O)N(C)[C@@H](CO)C(=O)N(C)[C@@H](Cc2ccc(OC)cc2)C(=O)N[C@@H](C(C)C)C(=O)N(C)[C@@H](Cc2ccc(O)cc2)C(=O)N1C	ipgm-1 (Caenorhabditis elegans, UniProt G5EFZ1)	enzyme activity				AC50	6460 nM
C[N+](C)(CC#CCOC1=NOCC1)CCCCCCNC(=O)CCOCCOCCOCCOCCNC(=O)CCCC(=O)NCCCCC(C(=O)O)N(CC(=O)O)CC(=O)O (stereo not drawn)	CHRM1 (Homo sapiens, UniProt P11229)	calcium response, agonist, fura-2 calcium imaging	transfected CHO cells			EC50	2400 nM
CC(C)[C@@H]1NC(=O)[C@H](CCC(N)=O)NC(=O)[C@@H](Cc2ccc(O)cc2)NC(=O)CSC[C@@H](C(N)=O)NC(=O)[C@H](CC(=O)O)NC(=O)[C@H](CCC(=O)O)NC(=O)[C@H](Cc2c[nH]c3ccccc23)NC(=O)[C@@H]2CCCN2C(=O)[C@H](CO)NC(=O)[C@H](C)NC(=O)[C@H](Cc2c[nH]c3ccccc23)NC(=O)[C@H](Cc2c[nH]c3ccccc23)NC(=O)[C@H](C(C)C)NC(=O)[C@H]([C@@H](C)O)NC1=O	2,3-bisphosphoglycerate-independent phosphoglycerate mutase (gpmI, Staphylococcus aureus, UniProt Q6GIL5)	enzyme activity				AC50	39.8 nM
CCCNC(=O)[C@H](CC(C)C)NC(=O)[C@H](Cc1c[nH]cn1)NC(=O)CNC(=O)[C@@H](NC(=O)[C@H](C)NC(=O)[C@H](Cc1c[nH]c2ccccc12)NC(=O)[C@H](CCC(N)=O)NC(=O)[C@@H](Cc1ccccc1)NC(=O)CCCCCNC(=O)CN1CCN(CC(=O)O)CCN(CC(=O)O)CCN(CC(=O)O)CC1)C(C)C [indium-111 labelled]	Gastrin-releasing peptide receptor (Mus musculus, UniProt P21729)	biodistribution	CF-1 mice, muscle	intravenous, 1 h, together with: bombesin 100 µg, blocking		tissue uptake	0.06 ± 0.01 %ID/g
CC(C)[C@@H]1NC(=O)[C@H](CO)NC(=O)[C@H](Cc2c[nH]c3ccccc23)NC(=O)[C@H](CCC(=O)O)NC(=O)[C@H](CC(=O)O)NC(=O)[C@H](Cc2ccc(O)cc2)NC(=O)[C@H](Cc2ccc(O)cc2)NC(=O)[C@H](Cc2c[nH]c3ccccc23)NC(=O)[C@H](Cc2c[nH]c3ccccc23)NC(=O)[C@H](CC(=O)O)NC(=O)CNC(=O)[C@H](CO)NC(=O)[C@@H](Cc2ccc(O)cc2)NC(=O)CSC[C@@H](C(N)=O)NC(=O)CNC(=O)[C@H](Cc2ccccc2)NC(=O)[C@H](C)NC1=O	cofactor-independent phosphoglycerate mutase (Metamycoplasma orale, UniProt A0A448ZXM1, W431C)	biochemical	Mycoplasma orale			AC50	11700 nM
CCOC(=O)C1C(OC(c2ccc(Cl)cc2)c2ccc(Cl)cc2)CC2CCC1N2C (single isomer, unassigned)	ADORA1 (Homo sapiens, UniProt P30542)	binding, radioligand displacement		inactive if below 75% at 10000 nM, together with: [3H]DPCPX		Ki	inactive

Repeated from above:
SMILES	target or system	assay	test system	conditions	scale	measurement	value
C=CC(=O)N1CCC[C@@H](n2nc(-c3ccc(Cl)cc3)c3c(N)ncnc32)C1	Src family kinases				baseline: wild type over S245C	Ki ratio	≥ 50 fold
CC(C)C[C@H](NC(=O)[C@H](Cc1ccccc1)NC(=O)[C@H](CC(C)C)NC(=O)[C@H](CO)NC(=O)[C@H](CC(C)C)NC(=O)[C@H](CCC(N)=O)NC(=O)[C@H](CC(=O)O)NC(=O)[C@H](CC(=O)O)NC(=O)CCCCCNC(=O)c1ccc2c(c1)C(=O)OC21c2ccc(O)cc2Oc2cc(O)ccc21)C(=O)N[C@@H](CC(=O)O)C(=O)N[C@@H](CCC(=O)O)C(N)=O	Beta sliding clamp (dnaN, Bacillus subtilis, UniProt P05649)			pH 7.5		Kd	7200 ± 2200 nM
CCC(=O)N(C)c1ccc(Cl)c(Cl)c1	Salmonella typhimurium	Ames test	TA100	5.00 mg/plate, with rat liver S9		revertant colonies	0 revertants/plate
